# Published values collected from several papers.
# Numbered parts are unrelated; each lists some results of a single study.

# Block 1 — method: RNAcompete; molecule type: RNA; sample: in vitro; concentration: 20 nM; notes: 7-mer, probes averaged, single round; relative to: mean of 7-mers; direction: higher = stronger binding
# Target: PABPC1L2, full length, GST fusion (mouse, UniProt A0ABA7IW68)
# Target sequence (chain): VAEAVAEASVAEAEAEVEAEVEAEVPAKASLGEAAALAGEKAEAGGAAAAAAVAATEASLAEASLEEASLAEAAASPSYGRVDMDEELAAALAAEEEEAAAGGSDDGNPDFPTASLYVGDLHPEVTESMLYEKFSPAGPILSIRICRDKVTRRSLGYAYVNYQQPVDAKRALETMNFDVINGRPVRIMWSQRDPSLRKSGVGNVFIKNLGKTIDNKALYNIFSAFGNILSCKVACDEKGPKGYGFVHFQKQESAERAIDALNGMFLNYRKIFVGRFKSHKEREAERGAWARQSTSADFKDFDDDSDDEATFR
Oligonucleotide,7-mer Z-score
UAGGCUC,-0.0573
CAGAUUU,-0.13
CGGACCG,-0.202

# Block 2 — method: aptamer microarray, sandwich; molecule type: DNA with 2'F-ANA; sample: in vitro; concentration: 200 nM; added: Cy3 exosite-II aptamer, 400 nM; direction: higher = stronger binding
# Target: Prothrombin, mature alpha-thrombin (F2, Homo sapiens, UniProt P00734)
# Notes: whole 15-mer aptamer, many near background
Oligonucleotide,mean fluorescence intensity
GGTTGGTGTGGTTGG (2'F-ANA at 1 2 6 7 9 10 11 12 14 15),50.3 a.u.
GGTTGGTGTGGTTGG (2'F-ANA at 2 4 5 9 11 13),51.7 a.u.
GGTTGGTGTGGTTGG (2'F-ANA at 1 3 6 9 10 13),126 a.u.
GGTTGGTGTGGTTGG (2'F-ANA at 1 5 6 9 11 13),50.1 a.u.

# Block 3 — method: protein binding microarray; molecule type: double-stranded DNA, one strand shown; sample: in vitro; concentration: not given; relative to: not given; direction: higher = stronger binding
# Target: Histone acetyltransferase KAT6A, winged helix 2, GST fusion (KAT6A, Homo sapiens, UniProt Q92794, residues 85-181)
# Notes: 8-mer, flanks averaged, mean of 2 arrays, mostly near background
# Target sequence (chain): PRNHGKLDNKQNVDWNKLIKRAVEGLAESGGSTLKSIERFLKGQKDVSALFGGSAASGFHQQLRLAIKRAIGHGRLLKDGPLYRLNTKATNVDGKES
Oligonucleotide,E-score
CCATTTAG,-0.12
GCGCCAGC,0.21
ATTTGCCG,0.221
CTCTTCGC,0.0848
GACGGGAA,0.0256

# Mixed results
Substance,target,assay,system,setting,how to read,endpoint,value
"PhoQ, residues 284 288 289 292 302 303 TSTLRA","PhoP, residues 12 14 15 18 19 NHFIF (Escherichia coli, UniProt P23836)","Sort-seq, item: YFP reporter",E. coli,"PhoQ-PhoP variant library, added: 10 µM Mg2+","relative to: high Mg2+ state, higher = stronger signaling",fold induction,7.68

# A few entries again (block 3):
Oligonucleotide,E-score
ATTTGCCG,0.221
